Assay results gathered from unrelated publications.
Compare with care: the assays were run in different laboratories.

Under “intrinsic aqueous solubility”, `O=S1(=O)CC2CCCCC2CS1` (stereo not drawn) is recorded as 1580 µM (NMR with water suppression; deionized water; 25.0 °C).
`CCc1nc(N)nc(N)c1C#CC(C)c1cc(-c2ccnc(OC)c2)ccc1OC` (racemic) gave an intrinsic clearance of 173 µL/min/mg (mouse liver microsomes; 0.5 µg/mL).
Under “intrinsic dissolution rate”, `COc1cc(Cc2cnc(N)nc2N)cc(OC)c1OC.O=c1[nH]cc(F)c(=O)[nH]1` is recorded as 0.11 mg cm⁻² min⁻¹ (water; 310 K, 100 rpm).
For `CC(=O)NC1CC=C(c2cc3c(Nc4cc5ncsc5cc4F)ncnc3s2)CC1` (racemic), the intrinsic clearance was under 12 mL/min/g protein (human liver microsomes; 1 µM).
For `NS(=O)(=O)c1ccc(NC(=O)NN[C@@H]2O[C@H](CO)[C@@H](O)[C@H](O)[C@H]2O)cc1`, the intrinsic clearance was 3.83 mL/min/kg (mouse liver microsomes; 1 µM).
`CC(C)C(=O)N1CC=C(c2cc3c(Nc4cc5ncsc5cc4F)ncnc3s2)CC1` has an intrinsic clearance of under 12 mL/min/g protein (human liver microsomes; 1 µM).
The intrinsic clearance of `CCc1nc(N)nc(N)c1C#C[C@H](C)c1cc(-c2ccncc2)ccc1OC` is reported as about 99 µL/min/mg (mouse liver microsomes; 0.5 µg/mL).
`CC(C)C(=O)N1CCC=C(c2cc3c(Nc4cc5ncsc5cc4F)ncnc3s2)C1` has an intrinsic clearance of under 12 mL/min/g protein (human liver microsomes; 1 µM).
For `CC(C)(C)NCC(SS(=O)(=O)O)c1ccccc1` (stereo not drawn), the intrinsic clearance was 0.667 µL/min/mg (mouse liver microsomes; NADPH-dependent CYP part).

Repeated from above:
The intrinsic clearance of `CCc1nc(N)nc(N)c1C#C[C@H](C)c1cc(-c2ccncc2)ccc1OC` is reported as about 99 µL/min/mg (mouse liver microsomes; 0.5 µg/mL).
